Results of several laboratories.
Each line is one published result; not all experiments were run side by side. “And” joins repeats or separate records; there may be more than shown. Numbers after ± are the reported error.

OCC1=C[C@@H](O)[C@@H]2C=CO[C@@H](O[C@@H]3O[C@H](CO)[C@@H](O)[C@H](O)[C@H]3O)[C@H]12  AUC(0-inf) decrease (rat, plasma; oral, dose not given, dosed as combined Eu and Pc extracts; baseline: single extracts): 197 ± 126 mg·h/L
Cc1cccc(CNC(=O)c2cn(CCNC(=O)c3ccccc3S)c3cc4c(cc3c2=O)OC(F)(F)O4)n1  AUC(0-inf) (Sprague-Dawley rat, male, plasma; intravenous, 20 mg/kg of parent drug): 1510 ± 126 ng·h/mL
CCc1cc(C(=O)NC)c2nccc(N3CCc4c(cc(Cn5ccnc5)cc4-c4cn(C)nc4C(F)(F)F)C3=O)c2c1  AUC(0-inf) (Sprague Dawley rat, male, plasma; oral, 100 mg/kg twice daily, 7 days): 126000 ng·h/mL
CCc1c(-c2ccccc2)c(-c2ccccc2)nn1-c1ccccc1-c1cccc(OCC(=O)O)c1  AUC(0-inf) observed (Sprague-Dawley rat; oral, dose not given): 4950 ng·h/mL and 5820 ng·h/mL and 5830 ng·h/mL
COC(=O)C1=CO[C@@H](O[C@@H]2O[C@H](CO)[C@@H](O)[C@H](O)[C@H]2O)[C@@H]2C(CO)=CC[C@H]12  AUC(0-inf) increase (Sprague-Dawley rat, internal jugular vein plasma; oral, dose not given, dosed as combined Eu and Pc extracts; baseline: Eu extract alone): 42.2 ± 18.6 mg·h/L
O=C1CC[C@H](N2Cc3cc(N4CCN(CC5CCN(c6ccc([C@@H]7c8ccc(O)cc8CC[C@@H]7c7ccccc7)cc6)CC5)CC4)ccc3C2=O)C(=O)N1  AUC(0-inf) excess female over male (fasted Sprague-Dawley rat, plasma; oral, 20 mg/kg; baseline: male rats): 84.3%
CNC(=O)c1cccc(-c2ccc([C@@H](O)[C@H]3O[C@H](CO)[C@@H](O)[C@H](O)[C@@H]3O)c(C)c2)c1  AUC(0-inf) (male Sprague-Dawley rat, plasma; oral, 10 mg/kg, group mean): 83.8 ng·h/mL
C1=C/COCc2cc(ccc2OCCN2CCCC2)Nc2nccc(n2)-c2cccc(c2)COC/1  AUC(0-inf) (LC-MS/MS; Sprague-Dawley rat, male, plasma; oral, 36 mg/kg, with: isavuconazole 20 mg/kg oral): 11800 ± 7580 ng·h/mL
COc1cc2nccc(Oc3ccc(NC(=O)NC4CC4)c(Cl)c3)c2cc1C(N)=O  AUC(0-inf) increase (Sprague-Dawley rats male, plasma; oral, dose not given, with: isavuconazole; baseline: without isavuconazole): 50%
Cc1cccc(CNC(=O)c2cn(CCNC(=O)c3ccccc3Sc3c([N+](=O)[O-])ncn3C)c3cc4c(cc3c2=O)OC(F)(F)O4)n1  AUC(0-inf) (Sprague-Dawley rat, male, whole blood; intramuscular, 3 mg/kg of parent compound): 36.5 ng·h/mL
COc1cc([C@H]2OC[C@H]3[C@@H]2CO[C@@H]3c2ccc(O[C@@H]3O[C@H](CO)[C@@H](O)[C@H](O)[C@H]3O)c(OC)c2)ccc1O[C@@H]1O[C@H](CO)[C@@H](O)[C@H](O)[C@H]1O  AUC(0-inf) decrease (rat, plasma; oral, dose not given, dosed as combined Eu and Pc extracts; baseline: single extracts): 156 ± 152 mg·h/L
CSc1ccccc1C(=O)NCCn1cc(C(=O)NCc2cccc(C)n2)c(=O)c2cc3c(cc21)OC(F)(F)O3  AUC(0-inf) (Sprague-Dawley rat, male, plasma; intravenous, 5 mg/kg of parent drug): 108 ± 7.3 ng·h/mL
C=CC(=O)N1CCC(Oc2cc3c(Nc4ccc(Cl)c(Cl)c4F)ncnc3cc2OC)CC1  AUC(0-inf) ratio (Sprague-Dawley rat male, plasma; oral, 2 mg/kg, with: schisandrin B 20 mg/kg daily 1 weeks pretreatment; baseline: no pretreatment): 0.58 fold

For quick reference, copied from above:
Cc1cccc(CNC(=O)c2cn(CCNC(=O)c3ccccc3Sc3c([N+](=O)[O-])ncn3C)c3cc4c(cc3c2=O)OC(F)(F)O4)n1  AUC(0-inf) (Sprague-Dawley rat, male, whole blood; intramuscular, 3 mg/kg of parent compound): 36.5 ng·h/mL
COc1cc([C@H]2OC[C@H]3[C@@H]2CO[C@@H]3c2ccc(O[C@@H]3O[C@H](CO)[C@@H](O)[C@H](O)[C@H]3O)c(OC)c2)ccc1O[C@@H]1O[C@H](CO)[C@@H](O)[C@H](O)[C@H]1O  AUC(0-inf) decrease (rat, plasma; oral, dose not given, dosed as combined Eu and Pc extracts; baseline: single extracts): 156 ± 152 mg·h/L
